Measurements collected from several papers.
Values joined by “and” are separate records of one study, mostly repeats; a detail may differ. ± marks the error that the study gave.
CA2: Carbonic anhydrase 2 (CA2, Bos taurus, UniProt P00921)
Sequence of UniProt P00921 (whole entry, looked up): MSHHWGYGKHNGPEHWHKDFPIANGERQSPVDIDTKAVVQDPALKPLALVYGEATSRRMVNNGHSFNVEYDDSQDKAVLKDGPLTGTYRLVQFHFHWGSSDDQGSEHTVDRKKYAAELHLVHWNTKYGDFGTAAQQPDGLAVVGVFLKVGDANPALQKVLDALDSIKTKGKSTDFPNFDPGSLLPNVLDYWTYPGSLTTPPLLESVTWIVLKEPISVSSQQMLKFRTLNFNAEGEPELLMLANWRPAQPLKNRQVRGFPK
FKBP5: Peptidyl-prolyl cis-trans isomerase FKBP5 (FKBP5, Homo sapiens, UniProt Q13451)
Sequence of UniProt Q13451 (whole entry, looked up): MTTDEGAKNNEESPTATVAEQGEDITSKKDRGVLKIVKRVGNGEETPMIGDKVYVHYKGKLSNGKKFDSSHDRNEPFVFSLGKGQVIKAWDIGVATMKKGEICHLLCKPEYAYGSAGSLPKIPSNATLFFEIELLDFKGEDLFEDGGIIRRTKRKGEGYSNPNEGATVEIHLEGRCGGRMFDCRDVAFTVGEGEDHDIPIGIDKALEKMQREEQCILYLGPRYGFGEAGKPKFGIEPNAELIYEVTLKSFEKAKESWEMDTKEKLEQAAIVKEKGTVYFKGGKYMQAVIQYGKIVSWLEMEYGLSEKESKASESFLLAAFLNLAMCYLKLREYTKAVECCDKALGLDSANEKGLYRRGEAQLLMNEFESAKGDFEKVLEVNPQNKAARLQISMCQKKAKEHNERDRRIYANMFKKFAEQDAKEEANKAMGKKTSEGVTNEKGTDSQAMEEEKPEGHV
KAI2: KAI2 (Arabidopsis thaliana, UniProt Q9SZU7)
Sequence of UniProt Q9SZU7 (whole entry, unmodified, looked up): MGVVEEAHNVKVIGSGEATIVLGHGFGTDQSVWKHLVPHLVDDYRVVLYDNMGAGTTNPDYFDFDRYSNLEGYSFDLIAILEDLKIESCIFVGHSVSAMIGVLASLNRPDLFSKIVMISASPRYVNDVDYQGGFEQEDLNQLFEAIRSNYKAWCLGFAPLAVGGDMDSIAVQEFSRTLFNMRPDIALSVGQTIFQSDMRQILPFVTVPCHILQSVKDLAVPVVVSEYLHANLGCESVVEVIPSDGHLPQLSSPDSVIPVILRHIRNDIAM
Sequence of UniProt P02716 (whole entry, looked up): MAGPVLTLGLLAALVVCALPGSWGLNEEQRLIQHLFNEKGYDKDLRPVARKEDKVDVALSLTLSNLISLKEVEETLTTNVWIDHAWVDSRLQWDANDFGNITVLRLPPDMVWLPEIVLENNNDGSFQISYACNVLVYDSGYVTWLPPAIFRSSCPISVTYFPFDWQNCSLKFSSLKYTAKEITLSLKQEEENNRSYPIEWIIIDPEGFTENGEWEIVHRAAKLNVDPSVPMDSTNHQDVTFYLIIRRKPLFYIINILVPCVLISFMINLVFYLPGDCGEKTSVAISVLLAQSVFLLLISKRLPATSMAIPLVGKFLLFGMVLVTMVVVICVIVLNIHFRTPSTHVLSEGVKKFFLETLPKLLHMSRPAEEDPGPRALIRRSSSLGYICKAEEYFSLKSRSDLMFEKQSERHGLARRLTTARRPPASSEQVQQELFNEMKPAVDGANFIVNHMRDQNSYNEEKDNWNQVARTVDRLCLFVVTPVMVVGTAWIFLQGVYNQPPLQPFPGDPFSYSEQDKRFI
Sequence of UniProt P51812 (whole entry, looked up): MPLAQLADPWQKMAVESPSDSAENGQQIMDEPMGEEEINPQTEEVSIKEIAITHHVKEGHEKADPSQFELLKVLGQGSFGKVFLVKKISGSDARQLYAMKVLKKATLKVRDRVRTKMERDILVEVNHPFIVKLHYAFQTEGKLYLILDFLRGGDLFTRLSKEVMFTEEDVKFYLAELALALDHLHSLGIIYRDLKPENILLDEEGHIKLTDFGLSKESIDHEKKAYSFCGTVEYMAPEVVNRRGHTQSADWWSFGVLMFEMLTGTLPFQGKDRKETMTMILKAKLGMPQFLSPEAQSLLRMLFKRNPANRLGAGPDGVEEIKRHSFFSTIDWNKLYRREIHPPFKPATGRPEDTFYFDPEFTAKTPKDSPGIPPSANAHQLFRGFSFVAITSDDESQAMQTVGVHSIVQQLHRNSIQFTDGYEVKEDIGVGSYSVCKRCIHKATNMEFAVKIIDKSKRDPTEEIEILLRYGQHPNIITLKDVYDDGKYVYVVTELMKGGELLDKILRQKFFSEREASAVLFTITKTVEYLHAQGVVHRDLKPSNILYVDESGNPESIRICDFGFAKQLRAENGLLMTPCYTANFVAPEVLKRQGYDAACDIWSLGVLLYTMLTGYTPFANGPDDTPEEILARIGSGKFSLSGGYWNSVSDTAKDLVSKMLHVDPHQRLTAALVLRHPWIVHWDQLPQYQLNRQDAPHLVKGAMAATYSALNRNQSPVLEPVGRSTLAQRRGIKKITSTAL
Sequence of UniProt P20782 (whole entry, looked up): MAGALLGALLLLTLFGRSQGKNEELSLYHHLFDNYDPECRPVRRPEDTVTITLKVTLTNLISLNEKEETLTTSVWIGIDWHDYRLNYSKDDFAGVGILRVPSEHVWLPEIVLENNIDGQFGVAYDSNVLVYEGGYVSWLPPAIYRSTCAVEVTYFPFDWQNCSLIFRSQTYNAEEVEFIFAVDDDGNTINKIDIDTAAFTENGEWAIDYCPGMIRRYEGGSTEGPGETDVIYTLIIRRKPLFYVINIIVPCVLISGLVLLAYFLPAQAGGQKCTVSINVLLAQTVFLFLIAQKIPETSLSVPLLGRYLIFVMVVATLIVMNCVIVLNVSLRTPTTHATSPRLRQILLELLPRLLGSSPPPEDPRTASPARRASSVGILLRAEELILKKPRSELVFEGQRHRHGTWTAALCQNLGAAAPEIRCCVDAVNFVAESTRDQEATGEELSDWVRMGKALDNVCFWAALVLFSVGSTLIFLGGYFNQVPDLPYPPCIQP
Sequence of UniProt P04756 (whole entry, looked up): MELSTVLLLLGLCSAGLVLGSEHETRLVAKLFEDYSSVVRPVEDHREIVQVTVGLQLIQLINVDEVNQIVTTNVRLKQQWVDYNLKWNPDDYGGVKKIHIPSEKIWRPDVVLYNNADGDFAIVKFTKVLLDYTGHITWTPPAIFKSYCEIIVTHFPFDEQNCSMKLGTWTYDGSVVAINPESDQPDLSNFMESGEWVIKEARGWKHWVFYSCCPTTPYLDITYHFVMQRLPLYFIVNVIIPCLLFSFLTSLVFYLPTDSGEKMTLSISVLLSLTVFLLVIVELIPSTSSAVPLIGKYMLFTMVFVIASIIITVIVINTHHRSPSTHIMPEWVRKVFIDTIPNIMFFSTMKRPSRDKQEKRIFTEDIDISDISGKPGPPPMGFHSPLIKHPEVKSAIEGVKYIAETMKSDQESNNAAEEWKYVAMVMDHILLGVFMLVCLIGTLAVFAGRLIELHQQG
Sequence of UniProt P11086 (whole entry, looked up): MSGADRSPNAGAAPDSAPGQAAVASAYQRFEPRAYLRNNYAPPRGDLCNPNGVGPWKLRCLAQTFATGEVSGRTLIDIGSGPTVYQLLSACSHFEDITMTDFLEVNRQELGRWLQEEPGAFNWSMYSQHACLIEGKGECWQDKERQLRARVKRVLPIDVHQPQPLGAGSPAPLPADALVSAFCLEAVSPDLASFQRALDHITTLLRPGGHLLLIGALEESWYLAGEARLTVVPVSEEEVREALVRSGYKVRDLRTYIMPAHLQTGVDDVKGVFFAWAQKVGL
Sequence of UniProt P31725 (whole entry, looked up): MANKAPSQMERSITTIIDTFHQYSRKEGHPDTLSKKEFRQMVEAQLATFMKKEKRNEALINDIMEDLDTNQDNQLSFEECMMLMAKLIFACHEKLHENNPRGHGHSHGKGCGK

| SMILES | target | test | system | setting | Kd |
| --- | --- | --- | --- | --- | --- |
| CN(C)c1ccc2c(c1)C(=O)N(c1ccc(S(N)(=O)=O)cc1)C2=O | CA2 | binding |  |  | 240 nM |
| C[n+]1c(/C=C/c2ccc(N(c3ccccc3)c3ccccc3)cc2)cc(/C=C2\Sc3ccccc3N2CCCN2CCCC2)c2ccccc21 | Pu27 DNA | isothermal titration calorimetry |  | pH 7.4, 25 °C, 2% DMSO | 2530 nM |
| C=CC1CN(Cc2ccccn2)C(=O)C2CCCC1N2[S+]([O-])c1cc(Cl)cc(Cl)c1 (stereo not shown) | FKBP5 | ligand displacement, FP |  |  | 2240 nM |
| CC(C)(C)n1cc(CN(Cc2cn(CCOCCOCCOCCOCCOCCO)nn2)Cc2cn(C(C)(C)C)nn2)nn1 | Cu(I) | binding, bicinchoninic acid competition |  | 500 µM, together with: bicinchoninic acid 40 µM | 0.32 nM |
| O=C(c1ccco1)N1CCc2ccccc21 | KAI2 | ITC |  |  | 251000 nM |
| Cc1c[nH]c2nccc(-c3ccc(C(=O)N[C@@H]4c5c(F)cc(C(F)F)cc5C[C@@H]4O)cn3)c12 | Ribosomal protein S6 kinase alpha-3, N-terminal kinase domain (RPS6KA3, Homo sapiens, UniProt P51812) | binding, competition with immobilised ligand |  |  | 470 nM |
| O=C(N1CCc2cccc(Cl)c21)n1ccnn1 | KAI2 | isothermal titration calorimetry |  |  | 166000 nM and 192000 nM |
| CN(C)c1ccc2c3c(cccc13)C(=O)N(CCc1ccc(S(N)(=O)=O)cc1)C2=O | CA2 | binding |  |  | 160 nM |
| C=CC1CN(Cc2ccccn2)C(=O)C2CCCC1N2S(=O)(=O)c1cc(Cl)cc(Cl)c1 (stereo not shown) | FKBP5 | ligand displacement, FP |  |  | 97 nM |
| C=CC(=O)N1CCCN(C(=O)c2cc(Sc3cnc(NC(=O)C4CC4)s3)c(C)cc2OC)C[C@H]1C | ERBB2 (Homo sapiens, UniProt P04626) | binding, competition with immobilised ligand |  |  | > 10000 nM |
| O=C(N1CCc2cccc(F)c21)n1ccnn1 | KAI2 | isothermal titration calorimetry |  |  | 192000 nM and 149000 nM and 151000 nM |
| Nc1ncnc2c1ncn2C1OC(CN(CCCC2CNCc3c2ccc(Cl)c3Cl)CCC(N)C(=O)O)C(O)C1O (mixture of isomers) | PNMT (Homo sapiens, UniProt P11086) | ITC |  | pH 8.0, 25 °C, second site, without SAH | 282 ± 3 nM |
| CNC[C@H](O)c1cccc(O)c1 | chemotaxis protein CheW (Vibrio campbellii, UniProt A0A0A3EMQ5) | binding, microscale thermophoresis | PBS with 0.05% Tween 20 | room temperature, His-tagged protein, labelled | 300 ± 250 nM |
| Cc1cccc2c1N(C(=O)n1ccnn1)CC2 | KAI2 (Arabidopsis thaliana, UniProt Q9SZU7, S95C) | ITC |  | S95C mutant | 21300 nM and 33600 nM and 30900 nM |
| C=CCN=S(=O)(c1cc(Cl)cc(Cl)c1)N1C2CCCC1C(C=C)CN(Cc1ccccn1)C2=O (stereo not shown) | FKBP5 | ligand displacement, FP |  |  | > 40000 nM |
| O=C(N1CCc2ccccc21)n1nccn1 | KAI2 | isothermal titration calorimetry |  |  | 358000 nM and 227000 nM and 362000 nM |
| C[N+](C)(C)CCOC(N)=O | Chrnd/Chrna1/Chrne (Mus musculus, UniProt P02716+P04756+P20782) | single-channel kinetics |  | wild-type receptor | 410000 nM |
| CN(C)c1ccc2c(c1)C(=O)N(Cc1ccc(S(N)(=O)=O)cc1)C2=O | CA2 | binding |  |  | 130 nM |
| Cn1c(=O)n(C2CCC(=O)NC2=O)c2ccc(C3CCN(CC(=O)Nc4cccc(CS(=O)(=O)N5CC[C@H](Nc6cccc(-c7sc(C(=O)O)c(OCC(=O)O)c7Cl)c6)CC5(C)C)c4)CC3)cc21 (stereo partly shown) | Protein cereblon, with DDB1 (CRBN, Homo sapiens, UniProt Q96SW2) | isothermal titration calorimetry | PBS, 2% DMSO | 20 °C | ~2200 nM |
| C=C[C@H]1CN(Cc2ccccn2)C(=O)[C@@H]2CCC[C@H]1N2Sc1cc(Cl)cc(Cl)c1 | FKBP5 | ligand displacement, FP |  |  | > 40000 nM |
| C=CC(=O)N1CC2(CCN(c3nc(OC4CCN(CCCOC)CC4)nc4c(OCC(F)(F)F)c(-c5c(C)ccc6[nH]ncc56)c(C5CC5)cc34)CC2)C1 | GTPase KRas, GDP-bound (KRAS, Homo sapiens, UniProt P01116, Q61R) | binding, surface plasmon resonance |  |  | 618 ± 56 nM |
| CC1=NN(c2ccccc2)C(=O)C1 | Protein S100-A9 (S100a9, Mus musculus, UniProt P31725) | SPR |  | 4 °C, compound immobilised | 16.8 nM |
| CC(C)(C)n1cc(CN(Cc2cn(CC(=O)O)nn2)Cc2cn(C(C)(C)C)nn2)nn1 | Cu(I) | binding, bicinchoninic acid competition |  | 3000 µM, together with: bicinchoninic acid 40 µM | 0.135 nM |
| Cc1cccc2c1N(C(=O)n1ccnc1)CC2 | KAI2 | binding, ITC |  |  | 14900 nM |
| C=CC(=O)N1C[C@H](C)N(c2nc(OC[C@@]34CCCN3C[C@H](F)C4)nc3c(F)c(-c4ccc(F)c5sc(N)c(C#N)c45)c(C(F)(F)F)cc23)C[C@H]1C | GTPase KRas, GppNHp-bound (KRAS, Homo sapiens, UniProt P01116, G13D) |  |  |  | 2710 nM and 2520 nM |

Repeated from above:
| SMILES | target | test | system | setting | Kd |
| --- | --- | --- | --- | --- | --- |
| C[n+]1c(/C=C/c2ccc(N(c3ccccc3)c3ccccc3)cc2)cc(/C=C2\Sc3ccccc3N2CCCN2CCCC2)c2ccccc21 | Pu27 DNA | isothermal titration calorimetry |  | pH 7.4, 25 °C, 2% DMSO | 2530 nM |
